{"data": "Measured values pooled from the literature", "note": "Each numbered part is a random draw from the data of one study; scales do not carry over between parts. Several values in a cell are separate wells, animals, samples, runs or records.", "chain of UniProt P00519 (whole entry, unmodified, looked up)": "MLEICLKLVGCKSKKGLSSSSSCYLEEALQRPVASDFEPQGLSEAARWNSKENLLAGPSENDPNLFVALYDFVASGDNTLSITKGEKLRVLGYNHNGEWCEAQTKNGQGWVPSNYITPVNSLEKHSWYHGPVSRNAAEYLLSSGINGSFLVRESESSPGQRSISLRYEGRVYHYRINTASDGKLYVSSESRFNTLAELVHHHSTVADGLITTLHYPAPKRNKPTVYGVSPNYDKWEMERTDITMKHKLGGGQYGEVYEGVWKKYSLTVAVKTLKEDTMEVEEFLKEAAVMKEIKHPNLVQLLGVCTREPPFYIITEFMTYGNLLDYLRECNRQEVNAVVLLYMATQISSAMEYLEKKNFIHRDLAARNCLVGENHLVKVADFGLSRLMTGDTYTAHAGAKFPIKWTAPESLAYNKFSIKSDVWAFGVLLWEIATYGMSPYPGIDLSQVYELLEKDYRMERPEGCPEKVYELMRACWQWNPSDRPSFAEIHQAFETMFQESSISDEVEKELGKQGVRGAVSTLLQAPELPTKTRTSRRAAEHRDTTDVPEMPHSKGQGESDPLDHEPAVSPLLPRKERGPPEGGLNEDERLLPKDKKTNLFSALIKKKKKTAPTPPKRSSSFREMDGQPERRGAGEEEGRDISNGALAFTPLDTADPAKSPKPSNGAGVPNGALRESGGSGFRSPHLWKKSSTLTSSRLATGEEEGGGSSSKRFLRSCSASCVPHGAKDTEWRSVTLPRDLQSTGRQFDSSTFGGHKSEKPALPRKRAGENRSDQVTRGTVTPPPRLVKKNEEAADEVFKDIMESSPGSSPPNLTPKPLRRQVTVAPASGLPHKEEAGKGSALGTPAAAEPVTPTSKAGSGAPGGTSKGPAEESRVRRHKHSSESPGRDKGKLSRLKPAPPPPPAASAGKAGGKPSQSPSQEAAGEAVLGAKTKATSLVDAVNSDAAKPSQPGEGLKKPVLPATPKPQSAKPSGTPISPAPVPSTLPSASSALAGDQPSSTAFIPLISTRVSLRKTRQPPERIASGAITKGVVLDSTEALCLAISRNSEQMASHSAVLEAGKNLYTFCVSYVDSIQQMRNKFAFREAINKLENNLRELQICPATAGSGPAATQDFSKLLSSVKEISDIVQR", "chain of UniProt P46098 (whole entry, looked up)": "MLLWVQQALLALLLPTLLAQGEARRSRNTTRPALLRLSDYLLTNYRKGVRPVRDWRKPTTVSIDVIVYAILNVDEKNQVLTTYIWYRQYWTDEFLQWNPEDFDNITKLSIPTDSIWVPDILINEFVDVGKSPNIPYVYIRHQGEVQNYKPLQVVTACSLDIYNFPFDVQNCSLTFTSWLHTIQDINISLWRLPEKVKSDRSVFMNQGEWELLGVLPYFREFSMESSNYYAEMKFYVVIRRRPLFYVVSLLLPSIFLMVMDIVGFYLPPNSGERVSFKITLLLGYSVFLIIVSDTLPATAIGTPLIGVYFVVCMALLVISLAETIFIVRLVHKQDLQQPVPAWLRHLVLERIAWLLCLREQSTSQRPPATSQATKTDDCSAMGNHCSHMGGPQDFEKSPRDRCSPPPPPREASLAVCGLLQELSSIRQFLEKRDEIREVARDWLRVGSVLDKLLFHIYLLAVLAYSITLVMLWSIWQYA"}
{"data": "Series 1", "Compound": "CC(=O)N[C@@H](Cc1c[nH]c2ccccc12)C(=O)N[C@@H](CCC(=O)C=[N+]=[N-])C(=O)OC(C)C", "medium": "EL4 tumour", "dose": "dose not given", "baseline": "vehicle"}
{"item": "2-aminoadipate", "host": "mouse, EL4 tumour-bearing", "log2 fold change": 0.497}
{"item": "N-methyl-GABA", "host": "mouse, EL4 tumour-bearing", "log2 fold change": -0.144}
{"item": "N1-Methyl-4-pyridone-3-carboxamide", "host": "mouse, EL4 tumour-bearing", "log2 fold change": -0.474}
{"item": "S-methylcysteine sulfoxide", "host": "mouse, EL4 tumour-bearing", "log2 fold change": -0.894}
{"technique": "metabolomics", "item": "5-methylthioadenosine", "host": "mouse", "log2 fold change": -0.786}
{"item": "maltotriose", "host": "mouse, EL4 tumour-bearing", "log2 fold change": 1.1}
{"data": "Series 2", "target": "Glycogen synthase kinase-3 alpha (GSK3A, Homo sapiens, UniProt P49840)", "observed": "enzyme activity", "mode": "inhibitor", "tested at": "0.5 µM", "baseline": "control", "chain of UniProt P49840 (whole entry, looked up)": "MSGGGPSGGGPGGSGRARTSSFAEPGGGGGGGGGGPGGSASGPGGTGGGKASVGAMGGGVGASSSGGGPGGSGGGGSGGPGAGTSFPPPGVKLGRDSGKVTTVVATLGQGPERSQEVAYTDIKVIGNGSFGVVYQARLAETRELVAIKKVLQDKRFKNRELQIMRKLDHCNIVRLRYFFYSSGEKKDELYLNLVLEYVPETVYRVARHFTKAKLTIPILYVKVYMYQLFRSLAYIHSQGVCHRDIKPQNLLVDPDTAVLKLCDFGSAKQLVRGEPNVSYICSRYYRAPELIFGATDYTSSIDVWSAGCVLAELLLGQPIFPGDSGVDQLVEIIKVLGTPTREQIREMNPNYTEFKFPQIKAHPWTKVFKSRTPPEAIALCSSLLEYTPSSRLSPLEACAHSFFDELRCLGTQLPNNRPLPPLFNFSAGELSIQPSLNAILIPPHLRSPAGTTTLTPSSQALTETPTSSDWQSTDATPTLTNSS"}
{"Compound": "COc1cc2ncnc(Nc3ccc(Oc4ccccc4)cc3)c2cc1OC", "remaining activity [%]": 97}
{"Compound": "Cc1cccc(-c2[nH]c(C(C)(C)C)nc2-c2ccc3c(c2)OCO3)n1", "remaining activity [%]": 93}
{"Compound": "Nc1[nH]nc2nc3ccccc3nc12", "remaining activity [%]": 91.6}
{"Compound": "Cc1ccc(Nc2nccc(N(C)c3ccc4c(C)n(C)nc4c3)n2)cc1S(N)(=O)=O", "remaining activity [%]": 101}
{"Compound": "COc1ccc(OC)c2c(=S)c3ccccc3[nH]c12", "remaining activity [%]": 104}
{"Compound": "C#Cc1cccc(Nc2ncnc3cc(OCCOC)c(OCCOC)cc23)c1", "remaining activity [%]": 99.3}
{"Compound": "O=C1NC(=O)C(c2cn(CCCn3ccnc3)c3ccccc23)=C1Nc1ccccc1", "remaining activity [%]": 10.6}
{"Compound": "NCCNc1ncc(C(N)=O)c(Nc2cccc(C(F)(F)F)c2)n1", "remaining activity [%]": 83}
{"Compound": "OCC(O)CCON=C1C(c2c(O)[nH]c3ccccc23)=Nc2ccccc21 (stereo not drawn)", "remaining activity [%]": 7.31}
{"Compound": "O=c1c2ccccc2[nH]c(=S)n1CCN1CCC(=C(c2ccc(F)cc2)c2ccc(F)cc2)CC1", "remaining activity [%]": 104}
{"Compound": "CCOC(=O)c1c(C)[nH]c(/C=C2\\C(=O)Nc3ccccc32)c1C", "remaining activity [%]": 93.5}
{"Compound": "Cn1sc(=O)n(Cc2ccccc2)c1=O", "remaining activity [%]": 94.5}
{"Compound": "CC(C)[C@H](CO)Nc1nc(Nc2cc(N)cc(Cl)c2)c2ncn(C(C)C)c2n1", "remaining activity [%]": 101}
{"Compound": "COc1cc2nccc(Oc3ccc(NC(=S)NC(=O)c4ccccc4C)cc3)c2cc1OC", "remaining activity [%]": 91.4}
{"Compound": "O=C(CCCc1ccc(-c2ccccc2F)cc1)Nc1ccc(O)cc1", "remaining activity [%]": 98.6}
{"data": "Series 3", "cell line": "A-375", "tested at": "100 µM", "time": "18 h"}
{"Structure (SMILES)": "Cc1ccnc(NS(=O)(=O)c2ccc(N)cc2)n1", "viability [%]": 101}
{"Structure (SMILES)": "Cc1onc(-c2ccccc2)c1C(=O)N[C@@H]1C(=O)N2[C@@H]1SC(C)(C)[C@@H]2C(=O)O", "viability [%]": 100}
{"Structure (SMILES)": "C#C[C@]1(O)CC[C@H]2[C@@H]3CCC4=CC(=O)CC[C@@H]4[C@H]3CC[C@@]21CC", "viability [%]": 92.2}
{"Structure (SMILES)": "CC(C)[N+](C)(CCOC(=O)C1c2ccccc2Oc2ccccc21)C(C)C", "viability [%]": 85.9}
{"Structure (SMILES)": "CCCS(=O)(=O)Nc1ccc(F)c(C(=O)c2c[nH]c3ncc(-c4ccc(Cl)cc4)cc23)c1F", "viability [%]": 30.7}
{"Structure (SMILES)": "Cc1cc(=O)oc2cc(O)ccc12", "viability [%]": 76.1}
{"data": "Single results of other studies"}
{"Structure (SMILES)": "C[C@@H]1CN(c2cc(-c3nn(C)c4ccc(OC5(C)CC5)cc34)ncn2)C[C@H](C)O1", "target or system": "5-hydroxytryptamine receptor 3A (HTR3A, Homo sapiens, UniProt P46098)", "assay": "binding, radioligand binding", "conditions": "10 µM", "endpoint": "inhibition", "value": "-3.11%"}
{"Structure (SMILES)": "CC(C)(C)c1cnc(CSc2cnc(NC(=O)C3CCNCC3)s2)o1", "target or system": "HH", "assay": "trypan blue exclusion", "conditions": "1 µM, 48 h", "how to read": "baseline: untreated", "endpoint": "viability", "value": "0.809% and 4.97% and 2.8%"}
{"Structure (SMILES)": "CNC(=O)Nc1ccc2c(c1)CC[C@]21OC(=O)N(CC(=O)N(Cc2ccc(F)cc2)[C@@H](C)C(F)(F)F)C1=O", "target or system": "Tyrosine-protein kinase ABL1 (ABL1, Homo sapiens, UniProt P00519, E255K)", "assay": "KINOMEscan", "conditions": "1 µM, E255K mutant, phosphorylated", "how to read": "baseline: control", "endpoint": "remaining binding", "value": "75%"}
{"note": "Excerpt of the above (series 1):"}
{"item": "S-methylcysteine sulfoxide", "host": "mouse, EL4 tumour-bearing", "log2 fold change": -0.894}
{"item": "N-methyl-GABA", "host": "mouse, EL4 tumour-bearing", "log2 fold change": -0.144}
